Measured values collected from several papers.
Compare with care: the assays were run in different laboratories. ± marks the error that the study gave. Values after ≈ are worked out from the molar mass of the structure shown.

By UniProt entry, the sequences of proteins in these tests, tags left out.
UniProt Q9H3Y6, whole entry: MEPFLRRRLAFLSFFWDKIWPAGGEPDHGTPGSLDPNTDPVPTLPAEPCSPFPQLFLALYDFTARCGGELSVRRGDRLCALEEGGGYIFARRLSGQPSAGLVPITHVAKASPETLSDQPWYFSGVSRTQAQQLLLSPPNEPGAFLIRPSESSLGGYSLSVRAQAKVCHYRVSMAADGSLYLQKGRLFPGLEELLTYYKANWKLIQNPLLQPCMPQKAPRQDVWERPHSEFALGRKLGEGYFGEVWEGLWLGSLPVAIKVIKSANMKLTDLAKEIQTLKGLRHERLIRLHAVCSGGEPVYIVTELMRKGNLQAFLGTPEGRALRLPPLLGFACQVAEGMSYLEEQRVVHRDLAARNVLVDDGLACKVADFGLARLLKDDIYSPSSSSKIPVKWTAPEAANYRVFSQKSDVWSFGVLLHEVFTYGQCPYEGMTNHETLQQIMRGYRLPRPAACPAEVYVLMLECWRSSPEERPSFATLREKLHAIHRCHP
UniProt P35462, whole entry: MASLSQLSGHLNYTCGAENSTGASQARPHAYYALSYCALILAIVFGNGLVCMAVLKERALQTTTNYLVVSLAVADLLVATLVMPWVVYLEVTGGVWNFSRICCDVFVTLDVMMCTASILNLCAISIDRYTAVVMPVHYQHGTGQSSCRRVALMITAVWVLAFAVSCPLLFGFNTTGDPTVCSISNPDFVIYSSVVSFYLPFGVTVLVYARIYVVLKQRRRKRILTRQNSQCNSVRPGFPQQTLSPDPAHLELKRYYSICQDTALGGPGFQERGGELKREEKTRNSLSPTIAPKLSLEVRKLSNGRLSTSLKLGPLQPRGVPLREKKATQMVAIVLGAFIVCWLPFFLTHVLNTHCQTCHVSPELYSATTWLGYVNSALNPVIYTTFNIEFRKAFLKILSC

| Compound | target or system | test | system | setting | scale | measurement | value |
| --- | --- | --- | --- | --- | --- | --- | --- |
| CC#C/C(=N\OC[C@H]1COCCN1)c1ccc2ncnc(Nc3ccc(OCc4cccc(F)c4)c(Cl)c3)c2c1 | Tyrosine-protein kinase Srms (SRMS, Homo sapiens, UniProt Q9H3Y6) | kinase activity | – | 10 µM | – | inhibition | 43.3% |
| CCc1nc(N)nc(N)c1C#CCc1cc(OC)c(OC)c(-c2ccncc2)c1 | Staphylococcus aureus | – | ATCC 43300 | – | – | MIC | 0.0391 mg/L (≈ 0.1 µM) |
| COC(=O)c1ccc(Cl)cc1NC(=O)CSc1ncc(S(=O)(=O)c2ccc(Br)cc2)c(=O)[nH]1 | Zika virus | viral replication | PF-251013-18 | – | – | IC50 | 1 to 10 µM |
| CCOC(=O)OCOc1c(-c2ccc(Oc3ccc(OC(F)(F)F)cc3)cc2)c(C)nc2cc(OC)c(Cl)cc12 | Plasmodium yoelii | – | mouse | oral | – | single-dose cure dose | 3 mg/kg |
| CC(C)Cc1nnc2c(C(=O)NC3c4ccccc4-c4ccccc43)cccn12 | Escherichia coli | broth microdilution | wild type | – | – | MIC | > 64 mg/L |
| CCN1CCN(Cc2ccc(NC(=O)c3ccc(C)c(/C=C/c4cnc5[nH]ccc5c4OC)c3)cc2C(F)(F)F)CC1 | PRKAR1A-RET fusion | kinase-CDC37 interaction, cell-based kinome screen | – | 5 µM | reference: vehicle | log2 fold change | -1.13 |
| C[C@H](Cc1ccc(O)c(O)c1)[C@@H](C)Cc1ccc(O)c(O)c1 | – | – | human skin | 3% w/v solution, 24 h | – | total amount delivered | 37.5 ± 4.32 µg |
| CCCN1CCN(c2ccc3c(c2)C2CC3CCN2C(=O)OCc2ccccc2)CC1 (stereo not shown) | D(3) dopamine receptor (DRD3, Homo sapiens, UniProt P35462) | binding, radioligand binding | – | – | – | Ki | 4.43 µM |
| CSc1nc(Cl)cc(Sc2nnc(-c3cc(C(F)(F)F)cc(C(F)(F)F)c3)[nH]2)n1 | Pseudomonas aeruginosa | – | MDR clinical isolate | – | – | MIC | > 590 mg/L |
| COc1ccc(Nc2cc(C)c3cc(NC(=O)c4ccc(N(C)C)cc4)ccc3n2)cc1 | Zika virus | viral replication | PF-251013-18 | – | – | IC50 | > 10 µM |
| CCOc1ccc2cc(-c3nn(C(C)(C)CCO)c(N)c3C(N)=O)ccc2c1 | Toxoplasma gondii | growth | – | – | – | EC50 | 0.147 µM |
| O=C(Cn1c(-c2ccccn2)nc2ccccc21)Nc1ccc2ccccc2c1 | Helicobacter pylori | cell growth, colony count | G27 | 200 µM, 24 h, culture exiting stationary phase | – | viable cells remaining | 23 % CFU |
| CCCCCCC1c2ccc(O)cc2Oc2cc(O)ccc21 | Pseudomonas aeruginosa | – | MDR clinical isolate | added: polymyxin B nonapeptide 3 µg/mL | – | MIC | 1.9 mg/L (≈ 6.37 µM) |

A few entries again:
| Compound | target or system | test | system | setting | scale | measurement | value |
| --- | --- | --- | --- | --- | --- | --- | --- |
| CSc1nc(Cl)cc(Sc2nnc(-c3cc(C(F)(F)F)cc(C(F)(F)F)c3)[nH]2)n1 | Pseudomonas aeruginosa | – | MDR clinical isolate | – | – | MIC | > 590 mg/L |
| CCOc1ccc2cc(-c3nn(C(C)(C)CCO)c(N)c3C(N)=O)ccc2c1 | Toxoplasma gondii | growth | – | – | – | EC50 | 0.147 µM |
